Results pooled from the literature.
Every numbered part comes from another study and shows a few of its results, in no order. Positions count from the first letter of the parent shown.

Set 1
Target: TAR DNA-binding protein 43, full length, His tag (TARDBP, Homo sapiens, UniProt Q13148, residues 1-414)
Technique: RNA Bind-n-Seq
Molecule type: RNA
Matrix: in vitro
Tested at: 20 nM
Notes: 6-mer, flanks averaged, single round
With: 150 mM LiCl
Reference: input library
Direction: higher = stronger binding
Strand | 6-mer enrichment (R)
CGGCUU | 0.923
CCUGAA | 0.868
GAAGGC | 0.932
CCGCAU | 0.924
CGUUCG | 0.885
UAUGUA | 1.22
GUUUGG | 1.48
UUUGAG | 1.19
CCGGAC | 0.945
CCUAUG | 0.947
UGUCAG | 0.971
UAUGUC | 1.03
ACGGGA | 0.93
AGUAUU | 0.952
UUCUGA | 0.867
CUCCCA | 1.08
GUGUAA | 1.2
UUGACA | 1.02
ACUGCG | 0.909

Set 2
Target: ABI1, truncated, D143A, DHFR fusion (Arabidopsis thaliana)
Technique: DHFR PCA, deep sequencing
Matrix: yeast
Notes: methotrexate growth selection, single substitutions
With: (+)-ABA 17 µM
Reference: wild-type fitted maximum
Direction: higher = stronger binding
Parent: PYL1, truncated, DHFR fusion (Arabidopsis thaliana); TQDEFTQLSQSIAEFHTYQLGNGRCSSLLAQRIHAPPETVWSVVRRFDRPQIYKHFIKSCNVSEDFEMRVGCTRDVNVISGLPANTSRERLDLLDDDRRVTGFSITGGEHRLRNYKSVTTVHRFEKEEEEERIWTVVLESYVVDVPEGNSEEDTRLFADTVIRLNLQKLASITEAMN
Substitution | relative binding score [%]
G21K | 82.5
N22C | 74
V142E | 83.2
E109R | 55.2
N114G | 78.4
A35T | 34.7
A30D | 41.4
R98V | 55.1
T106L | 88.1
E128K | 96.9
V118F | 22.2
I12L | 50.6
A158R | -1.46
Y141W | -2.23
E139G | -4.01

Set 3
Target: CCNA1, cyclin fold, Cln2 fusion (human)
Technique: yeast growth competition, sequencing
Matrix: yeast
Notes: weak parent motif
Reference: not given
Direction: higher = stronger binding
Parent: PKN2 docking peptide (human); DSTVTKLDFDLEP; partner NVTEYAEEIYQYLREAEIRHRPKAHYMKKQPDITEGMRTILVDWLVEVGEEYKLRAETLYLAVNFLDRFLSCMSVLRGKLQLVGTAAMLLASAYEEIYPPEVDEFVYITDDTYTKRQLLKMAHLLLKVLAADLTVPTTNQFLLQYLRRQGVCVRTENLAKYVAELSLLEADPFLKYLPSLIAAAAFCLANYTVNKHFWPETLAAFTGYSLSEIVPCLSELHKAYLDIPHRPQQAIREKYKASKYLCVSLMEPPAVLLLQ
Substitution | normalised enrichment score
DSAVTKLDFDLEP [T3A] | -0.204
ASTVTKLDFDLEP [D1A] | 0.026
DSTVAKLDFDLEP [T5A] | -0.283
DSTVTKADFDLEP [L7A] | -0.105
DSTATKLDFDLEP [V4A] | 0.00552
DATVTKLDFDLEP [S2A] | -0.495

Set 4
Target: Histone acetyltransferase KAT6A, winged helix 1, GST fusion (KAT6A, Homo sapiens, UniProt Q92794, residues 1-85)
Technique: protein binding microarray
Molecule type: double-stranded DNA, one strand shown
Matrix: in vitro
Tested at: not given
Notes: 8-mer, flanks averaged, mean of 2 arrays, mostly near background
Reference: not given
Direction: higher = stronger binding
Target sequence (chain): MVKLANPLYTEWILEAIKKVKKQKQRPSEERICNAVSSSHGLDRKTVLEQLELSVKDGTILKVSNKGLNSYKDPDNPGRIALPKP
Strand | E-score
CTACCGAC | 0.129
ATGCACAT | -0.0655
CGCAGAAA | 0.0738
ACCCTTCA | -0.156
CGTCATGC | 0.209
ATGCAGGG | -0.197
AGCTGCAC | -0.0391
AGTTCGTC | -0.0502
CCGATTCC | 0.222
AGGGAGCG | 0.157
ATGACCTG | -0.0398
GGAAAGTA | 0.0294
CATAAAAC | -0.00654
AAAGTCTC | -0.126
AGGTCTAT | -0.146
AGAAGACC | -0.086
CGCGAGAA | 0.257
ACCTGGAC | -0.156
CCGGCAAC | 0.285
CTGGTGGA | -0.146
CCATGCTA | -0.103
CCACATCC | -0.19

Set 5
Target: Interferon regulatory factor 3, full length, phosphomimetic (IRF3, Homo sapiens, UniProt Q14653, residues 1-427, S386D/S396D/S398D/S402D/T404D/S405D)
Technique: protein-binding microarray
Molecule type: double-stranded DNA, one strand shown
Matrix: in vitro
Tested at: 2540 nM top
Notes: 60-bp whole probe
With: salmon DNA 0.4 mg/ml
Reference: random background probes
Direction: higher = stronger binding
Shared flanks, not repeated: GCCTAGCAC … GTCTTGATTCGCTTGACGCTGCTG
Target sequence (chain): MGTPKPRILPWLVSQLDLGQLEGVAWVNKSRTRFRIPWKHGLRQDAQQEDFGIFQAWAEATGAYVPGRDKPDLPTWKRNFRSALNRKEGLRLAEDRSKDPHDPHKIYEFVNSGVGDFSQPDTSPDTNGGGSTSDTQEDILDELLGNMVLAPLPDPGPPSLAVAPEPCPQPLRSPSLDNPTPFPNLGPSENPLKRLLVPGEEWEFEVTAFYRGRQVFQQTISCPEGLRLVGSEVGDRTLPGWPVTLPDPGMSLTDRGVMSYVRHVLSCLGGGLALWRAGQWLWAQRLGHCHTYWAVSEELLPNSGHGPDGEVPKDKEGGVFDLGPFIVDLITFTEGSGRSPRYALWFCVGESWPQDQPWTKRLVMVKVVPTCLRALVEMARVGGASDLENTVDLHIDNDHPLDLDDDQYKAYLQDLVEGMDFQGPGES
Strand | fitted relative affinity [z-score]
TTAAGTATCGGGACTGGGTTAGTGCTA | 1.37
GACGGTATCGGATTCGGGACGTGCTAG | 4.66
GACGGTATCGACGCTGGGGACGTGCTA | -0.0618
TTAGAACTGGACACTGGGTTAGTGCTA | -0.688
GACGGTCTCGGACTCGGGACGTGCTAG | 0.506
GACGTACTGGGGTTTCGAGACGTGCTA | 0.118
TCAATTGTGGTTTTCATACTGTGCTAG | 1.99
GACGGACTGCTACAGCTGACGTGCTAG | -0.622
TTAGGTATCGGAATGGGTTAGTGCTAG | 3.1
TAATATCTAAGATTCTAGCCGTGCTAG | -0.182
TTAGGACTGCTTCTCCTCTAGTGCTAG | -0.161
TCAGTTTCCTCTTTCACACTGTGCTAG | 6.82
TTAGATATCGGGACTGGACTAGTGCTA | -0.018
GACGGTATCGGGTATCGAGACGTGCTA | 1.63
GACGATATCAGTTTCGAGATGTGCTAG | 3.59
TCAGGTTTCACTTTCCAACTGTGCTAG | 8.1
TACGGTCTCGGTCTCGGGACGTGCTAG | 1.08
CACATTGTGCAATCTTAATAAGTGCTA | 1.49
TCACCTTACTTTATGTAACTGTGCTAG | 1.33
GACGATATCAGTTTCGAGCCGTGCTAG | 2.34
AATGATTACATATATGTTGGTGTGCTA | 0.121
GTCGGTATCGACACTGGGGACGTGCTA | 1.54
TTGGGACTGGGGACTGGGTTAGTGCTA | -1.34
GACGAGATCGGGTATCGAGACGTGCTA | 0.0904
TCACTTCCATTTTCTGAAACTGTGCTA | 3.51

Set 6
Target: RNA binding protein fox-1 homolog 2, RRM domain, GST-SBP tag (RBFOX2, Homo sapiens, UniProt O43251-10, residues 100-194)
Technique: RNA Bind-n-Seq
Molecule type: RNA
Matrix: in vitro
Tested at: 365 nM
Notes: natural RNA segment, single round, ends assumed
Reference: no-protein control
Direction: higher = stronger binding
Shared flanks, not repeated: GGGAGUUCUACAGUCCGACGAUC … UGGAAUUCUCGGGUGCCAA
Target sequence (chain): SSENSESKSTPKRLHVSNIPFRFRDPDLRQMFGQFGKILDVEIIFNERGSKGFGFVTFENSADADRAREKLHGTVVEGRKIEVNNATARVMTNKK
Strand | RBNS enrichment (R)
UUGUUUGCUUCCCAAAGAUGUAUGUUUUGGAAAAAAAUUGCCUGUAGUCUGGUUGUGAAGAACACUGAGUCAGUUGAUGGUGUGUCUUGUCCUCCAGACCAGGCAGCAAC | 3.4
GGAAGCCUACUGUGAUGGUUUGUAUAUGCUUGGGCCGGGGAGUGGCGCUAUUAGGAAGCGUGGCCUUUUUGGACUAGGUGUGUCACUGUGGCUGUGGGGUAUAGCACCCU | 1.27
GAAAGGCAGAAAGUUUACAAAUUAGACACUGGGUAUUUUUUAAGAACCUUCAGUGGAAGCAUGUCAUCAAUUCAUCACAGGCCUUUCCUGUCUUUGAAUUAGAAUCCAGA | 11.2
CCUCCCCUUGGAAGUUCCCCAUUGUCACUGAGAACCACCAAAUUUGACUUUCACAUUUGGUCUCAGAAUUUAGGUUCCUGCCCUGUUGUUUUUCUUUCUUUUUCUUUUUU | 0.74
AUUUCCGGGGAACGCCGUGACUGUCGGGCAGCCUGGAGCUUCCUGCAGCCUCCUACGCAGGGUCCACGCCACGUGGCCUGGGCUGCCAUCCUGCCGUCCUCCCACUGGCA | 0.312
UUUAAUUCUAAUACGAUGUCAUGUUAAUUUCAUGUUGUGAUUAAUAAAAGCAUUUUUUCUUCACUCAGUUUUAUAUAGGUUCCUGAACUCUAUCCACAUGCCGCCAUAGC | 0.749
CACAUCAGGAGCAAAAUCACAGAUAUGAACUUAAUAAAAAUAAUGUUAUGGUUGGAGGUCACCACAACAUGAGCAACUGCAUUAAAGGAUCGCAGCAUCACGAAGGUGGA | 1.58
AGAAAGAAAAAGGAAAAAUCCAAAAUAUCUCAGUAUCAUCUGUCUGAAGCAUUGUGUGUUCUCAUUCGGGUGGUAACAAUGUAUGUGUAAUAUUUUUUUCUUAGUGAUUU | 0.464
AGUCAUCUUUGUCUCCUUCCCUGGGAUGCAGAUACCGAAGUUGCUUUUCCAACUUUCGCCUCCGCUAGGAGAUCAGAAAGAAUUCUUGUGACUUCCUGGGCAGCCAUUGA | 0.285
GGCACGGGGUGAAGAAUCUGCCCAUCAAGGUGGGUGGGCCUCAUGUCGCUGCCCCCACCAGAGUCCUAAAACCUGGAUGGACUUGGACGGGACAAGAGGCCUGGACUGAG | 0.409
ACAGAGUUCAUGAAGCCCCAAACAAUUUUUAUUUUUGUAAAACAAUUGUAUGUUUAAUCUGUUUCUGAAAUCAUUUUGCAAUAUAUGGAAAUAGAGUAGCAGUUGAUAUU | 0.691
AAGUGCCCUUCAAAAGGACCCUGUUCACUGCUGCACUUUUCAAUGAAUUAAAAUUUAUUUCUGUUCUGUGGGAAUGUGUCCUUUGUUUUAGUUCACAAGUAGUAAUUUUG | 0.338

Some of these lines once more (set 5):
Strand | fitted relative affinity [z-score]
GACGGTATCGACGCTGGGGACGTGCTA | -0.0618
GACGGTATCGGGTATCGAGACGTGCTA | 1.63
GACGATATCAGTTTCGAGCCGTGCTAG | 2.34
GACGTACTGGGGTTTCGAGACGTGCTA | 0.118
TTGGGACTGGGGACTGGGTTAGTGCTA | -1.34
TACGGTCTCGGTCTCGGGACGTGCTAG | 1.08
TTAGGTATCGGAATGGGTTAGTGCTAG | 3.1
CACATTGTGCAATCTTAATAAGTGCTA | 1.49
TTAAGTATCGGGACTGGGTTAGTGCTA | 1.37
TTAGGACTGCTTCTCCTCTAGTGCTAG | -0.161
TCAGGTTTCACTTTCCAACTGTGCTAG | 8.1
